Published values collected from several papers.
A part holds a random share of what one study measured.

Set 1
Organism: Saccharomyces cerevisiae
Read-out: binding
Technique: yeast competitive growth sequencing
Molecule type: peptide
Strain: cyclin A1-Cln2 strain
Matrix: peptide tiling library
Direction: direction not given
Measurement: enrichment score
KDDDKAWEYEERDRRS: -0.231
QDYERRLLRQIVIQNE: 0.0633
RSLKLDGLLEEN: -0.997
VLLKRLQDVVSERANH: -0.924
TSSAQRRLEIPSGGAD: -0.38
RDLFDCDFGDLTPLDF: 1.32
SDSTVTKLDFDLEP: 0.416
SPREGHMMDALYAQVK: 0.303
IQKKLRFEDTLEFVGF: -1.05
KPITLDTTDFQESFVT: 0.547
RVSGLLSWTLSRVLWL: 0.0145
ALLRRLQDVANDRGSH: -0.216
KSKHEEEEWTDDDLVE: 1.27
TSPGPVLLHPSPSTTQ: 0.6

Set 2
Target: PABPC1L2, full length, GST fusion (mouse, UniProt A0ABA7IW68)
Technique: RNAcompete
Molecule type: RNA
Matrix: in vitro
Concentration: 20 nM
Notes: 7-mer, probes averaged, single round
Reference: mean of 7-mers
Direction: higher = stronger binding
Measurement: 7-mer Z-score
Target sequence (chain): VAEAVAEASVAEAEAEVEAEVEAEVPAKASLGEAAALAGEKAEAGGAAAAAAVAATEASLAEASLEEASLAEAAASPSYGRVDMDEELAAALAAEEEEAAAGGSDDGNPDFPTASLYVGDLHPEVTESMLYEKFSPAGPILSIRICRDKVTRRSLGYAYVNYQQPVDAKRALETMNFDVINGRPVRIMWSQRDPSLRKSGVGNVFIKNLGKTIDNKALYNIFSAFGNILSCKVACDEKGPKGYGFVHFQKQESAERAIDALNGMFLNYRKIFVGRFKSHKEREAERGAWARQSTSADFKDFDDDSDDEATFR
UAACUUG: -0.298
UCUUCAG: -0.325
AUAUUUA: 0.0116
UUAGCGU: -0.157
CUUCAGC: -0.293
GACGACC: -0.103
GACAGAU: -0.0699
GACGGGU: -0.124
AUCUCAA: -0.146
UUCCAUA: -0.275
UUUUCCG: -0.42
CAUUUAA: 0.407
GCUUCAU: -0.315
CUUCUAA: -0.188
CAUAGCC: -0.224
ACCCAUU: -0.122
AGAGACA: 0.175
UCGUGAC: -0.0591
ACCCACU: -0.282
UCUGGUU: -0.267

Set 3
Target: RNA binding protein fox-1 homolog 2, RRM domain, GST-SBP tag (RBFOX2, Homo sapiens, UniProt O43251-10, residues 100-194)
Technique: RNA Bind-n-Seq
Molecule type: RNA
Matrix: in vitro
Concentration: 365 nM
Notes: natural RNA segment, single round, ends assumed
Reference: no-protein control
Direction: higher = stronger binding
Measurement: RBNS enrichment (R)
Constant ends, left off below: GGGAGUUCUACAGUCCGACGAUC … UGGAAUUCUCGGGUGCCAA
Target sequence (chain): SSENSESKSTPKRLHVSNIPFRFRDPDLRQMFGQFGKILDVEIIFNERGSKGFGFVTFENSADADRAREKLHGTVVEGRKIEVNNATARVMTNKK
UGUGUUCACAAGGGUUACUCCUCAAAACCCCCAGUUCUCACUCAUGUCCCCAACUCAAGGCUAGAAAACAGCAAGAUGGAGAAAUAAUGUUCUGCUGCGUCCCCACCGUG: 0.343
GGCUGGGAGCCUUAGAGAAACGCAAGCUCACGCCUUCAUAAAUAUGCAGUUUCCUGCUUUCUGCCCUGAACUUUGAAAUGCCUGUGUAAGGAAUCAAAAUGAACAUGAUC: 0.647
AUUUCUUCUGGAGGGAAGCACCAUGAAUUAAAGGUGCCAGAGCUCCAUGCAUGGAAAAGUGGCCUGUUGGUUCAACGUGGUUUCCUUGUACUUGAUCCUCCUGAAAUGAG: 1.88
GCUGAACGUUCUCUCAGCCCAGAGCAGCAAACACAUGAAAGUCAGAAGUCUCUAAUAUAUCAUUUGUCUUUUUUCCAGUGAGGUAAAAUAAGGCAUAAAUGCAGGUAAUU: 0.677
UGCUGUCAGCCUUUGGGACAGUGGCUCUCAAAAGCCAAGAGCUCUUGGUUUAUCUGCACAGUACAAGCUGCUGGUAGACUACACUAGCCCUCUGGUUUCCCAGCGCAGCC: 0.323
AAGACGUGAGUAGAGCUAGGUUGGGCAGAUGGACAGGUGGCAAUAGUAAGCUUAUCCGAAGCCUACAGUGAGAAACCAUGUAGGCUUCUUGCCCGUUUCUAAUCACCAUU: 0.474
CAGCCCAGGGGGUUCUGCUUAUGUGUCCCCGUGGCUCUCCACAAAAGGGAGCUAGCACCUCUCCAUCCCUUUCUCUUACUGCCAUUGGAAAUUAUUUUAGGGCUGAGAUA: 0.372
UGGCUGAGUCCUUCUCAUCAUGGGACGAGUGAGCCAGAGCGGGGGAAAGGGCAUGAAGUAAAGCGUUGCCUGAAUGCUGUGUGGUGUUUUGUUUCUUCCUCCUUCCUAUG: 0.895

Set 4
Target: Interferon regulatory factor 7, full length, phosphomimetic (IRF7, Homo sapiens, UniProt Q92985, residues 1-503, S471D/S472D/S475D/S476D/S477D/S483D/S484D/S487D)
UniProt Q92985, sequence (whole entry, unmodified, looked up): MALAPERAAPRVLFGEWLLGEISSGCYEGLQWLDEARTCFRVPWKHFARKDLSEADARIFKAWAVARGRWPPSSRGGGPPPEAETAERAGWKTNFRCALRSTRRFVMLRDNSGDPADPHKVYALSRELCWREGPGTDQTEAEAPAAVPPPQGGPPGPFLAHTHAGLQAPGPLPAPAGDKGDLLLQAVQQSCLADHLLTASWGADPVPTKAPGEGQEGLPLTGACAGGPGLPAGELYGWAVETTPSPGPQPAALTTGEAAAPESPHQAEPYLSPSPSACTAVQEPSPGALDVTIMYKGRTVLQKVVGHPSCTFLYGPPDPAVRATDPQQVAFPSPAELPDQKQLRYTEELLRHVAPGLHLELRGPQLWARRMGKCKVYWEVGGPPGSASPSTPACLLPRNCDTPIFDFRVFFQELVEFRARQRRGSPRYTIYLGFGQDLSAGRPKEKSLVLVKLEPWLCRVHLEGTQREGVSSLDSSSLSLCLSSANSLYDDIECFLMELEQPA
Technique: protein-binding microarray
Molecule type: double-stranded DNA, one strand shown
Matrix: in vitro
Concentration: 2200 nM top
Notes: 60-bp whole probe
With: salmon DNA 0.4 mg/ml
Reference: random background probes
Direction: higher = stronger binding
Measurement: fitted relative affinity
Constant ends, left off below: GCCTAGCAC … GTCTTGATTCGCTTGACGCTGCTG
TTAGGTTTCCCTCTCCTTTAGTGCTAG: 2.24 z-score
GACGTTATCCTTCTCCTGACGTGCTAG: 1.76 z-score
TTAGAACTGAGTATCGAATAGTGCTAG: -0.538 z-score
TTAGATTTAGGGACTGGATTAGTGCTA: -0.661 z-score
GAGGAACTGGGGTATCGAGACGTGCTA: -0.632 z-score
GACGGTCTCCTTTTGCTGACGTGCTAG: 1.36 z-score
TTGTGTCTGGGATTTTGTCCGTGCTAG: 0.291 z-score
TTAGGTTCCCTTTTCCGTTAGTGCTAG: 3.41 z-score
TTAGGTCTCCTAGTGCTTTAGTGCTAG: -0.363 z-score
TCATTTCTCTGTTCTAGACTGTGCTAG: 2.76 z-score
TCACATCTTCCTCTGCCACTGTGCTAG: 2.22 z-score
TAAGGACTGCTACTGCTTTAGTGCTAG: -0.197 z-score
TCAAGTCCCAAGAATGGTACTGTGCTA: -0.0149 z-score
GAAGGTTTCGACACTGGGGACGTGCTA: 1.86 z-score
GACGTTATCGGGTTTCGAGACGTGCTA: 2.05 z-score
TCACTTTCCACTTGTCTTACTGTGCTA: 9.33 z-score
GACGGACTGGGTCTCGGGAGGTGCTAG: -0.791 z-score
GACGGTATCGGAGTGGGGACGTGCTAG: -0.679 z-score
TTAGGACTTGGGTTTCGGTTAGTGCTA: 3.26 z-score

Set 5
Target: Histone acetyltransferase KAT6A, both winged helices, GST fusion (KAT6A, Homo sapiens, UniProt Q92794, residues 1-181)
Technique: protein binding microarray
Molecule type: double-stranded DNA, one strand shown
Matrix: in vitro
Concentration: not given
Notes: 8-mer, flanks averaged, mean of 2 arrays, mostly near background
Reference: not given
Direction: higher = stronger binding
Measurement: E-score
Target sequence (chain): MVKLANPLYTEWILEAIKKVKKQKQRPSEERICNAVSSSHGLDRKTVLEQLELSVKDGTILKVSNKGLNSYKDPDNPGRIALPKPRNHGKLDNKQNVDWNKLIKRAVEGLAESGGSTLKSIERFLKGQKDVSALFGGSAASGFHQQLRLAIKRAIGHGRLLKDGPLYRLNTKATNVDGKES
CACGGATA: 0.176
CCAATAAG: -0.0877
CAAAGACG: 0.0489
AATTGACA: -0.0507
ACGTGATA: 0.00483
ATAAGAAT: -0.0431
AGATTGAG: -0.152
ATGATTCA: -0.0136
AACTCTTC: -0.0603
TGTAGTAA: -0.0534
ATACGGTG: 0.138
AGAACGCG: 0.302
CCTTTTCA: -0.18
CGGTGGAA: 0.00664
CTCTAGCA: -0.28
ACGTTAGA: -0.0473

A few entries again (set 4):
GAGGAACTGGGGTATCGAGACGTGCTA: -0.632 z-score
GACGGTCTCCTTTTGCTGACGTGCTAG: 1.36 z-score
TTGTGTCTGGGATTTTGTCCGTGCTAG: 0.291 z-score
TTAGGTTCCCTTTTCCGTTAGTGCTAG: 3.41 z-score
TTAGGTCTCCTAGTGCTTTAGTGCTAG: -0.363 z-score
TCATTTCTCTGTTCTAGACTGTGCTAG: 2.76 z-score
